Experimental data of several laboratories.
Lines come from different studies, so protocols differ. ± gives the spread as reported.

For CC(C)C[C@@H]1NC(=O)[C@H](C)NC(=O)[C@H](NC(=O)[C@H](CO)NC(=O)[C@@H](CCCCN)NC(=O)[C@@H](CC(C)C)NC(=O)[C@@H](N)Cc2ccccc2)[C@H](C(N)=O)OC(=O)[C@H](C)NC1=O, the MIC was 32 µg/mL (Bacillus subtilis Staphylococcus epidermidis; ATCC 14990; tested as TFA salt).
CCCCCCCCCCCCCCC(=O)O.O=C1CCCC2C3CCCN4CCCC(CN12)C34 (stereo not shown) — result for MIC: “inactive” (Cutibacterium acnes; bacterial growth, broth dilution; ATCC 6919).
The MIC of CC[C@H](C)[C@H](NC(=O)[C@H](CCCCN)NC(=O)[C@H](CC(N)=O)NC(=O)[C@H](Cc1c[nH]c2ccccc12)NC(=O)[C@H](Cc1ccccc1)NC(=O)[C@H](CCCCN)NC(=O)[C@H](CCCCNC(=N)N)NC(=O)[C@H](CC(C)C)NC(=O)[C@H](Cc1c[nH]c2ccccc12)NC(=O)[C@H](CCCCN)NC(=O)[C@H](CCCCNC(=N)N)NC(=O)[C@H](CC(C)C)NC(=O)CNC(C)=O)C(=O)N[C@@H](CCCCN)C(=O)N[C@@H](CCCCNC(=N)N)C(N)=O is reported as 6.25 µM (Enterobacter aerogenes; broth microdilution; multidrug-resistant).
With C[C@@H](c1ccn(Cc2ccc(Cl)cc2Cl)n1)[C@](O)(Cn1cnnn1)c1ccc(F)cc1F the MIC was 16 µg/mL (Candidozyma auris; microbial growth; D12; 24 h, drug-resistant strain, clinical isolate).
The MIC of CN[C@@H]1[C@H](O)[C@H](NC)[C@H]2O[C@]3(O)[C@H](O[C@@H]2[C@H]1O)O[C@H](C)C[C@@]3(O)CNCc1ccc(OC(F)(F)F)cc1 is reported as 13 µg/mL (Streptococcus pneumoniae; ATCC 700904 drug resistant).
CC(C)C[C@H](NC(=O)CNC(=O)[C@H](C)NC(=O)[C@H](CCCNC(=N)N)NC(=O)[C@H](Cc1c[nH]cn1)NC(=O)[C@H](C)NC(=O)[C@@H](N)CC(=O)O)C(=O)N[C@@H](CCC(N)=O)C(=O)N[C@@H](Cc1ccccc1)C(=O)N1CCC[C@H]1C(=O)N[C@H](C(=O)NCC(=O)N[C@@H](CCCNC(=N)N)C(=O)N[C@H](C(=O)N[C@@H](Cc1c[nH]cn1)C(=O)N[C@@H](CCCNC(=N)N)C(=O)N[C@@H](CC(C)C)C(=O)N[C@@H](CC(C)C)C(=O)N[C@@H](CCCNC(=N)N)C(=O)N[C@@H](CCCCN)C(N)=O)C(C)C)C(C)C gave an MIC of over 32 µM (Enterobacter aerogenes; ATCC 13048; 18 to 20 h).
CC[C@H](C)[C@H](NC(=O)[C@H](CCCN)NC(=O)[C@H](CC(N)=O)NC(=O)[C@H](Cc1c[nH]c2ccccc12)NC(=O)[C@H](Cc1ccccc1)NC(=O)[C@H](CCCN)NC(=O)[C@H](CCCCNC(=N)N)NC(=O)[C@H](CC(C)C)NC(=O)[C@H](Cc1c[nH]c2ccccc12)NC(=O)[C@H](CCCN)NC(=O)[C@H](CCCCNC(=N)N)NC(=O)[C@H](CC(C)C)NC(=O)CNC(C)=O)C(=O)N[C@@H](CCCN)C(=O)N[C@@H](CCCCNC(=N)N)C(N)=O has an MIC of 6.25 µM (Enterobacter aerogenes; broth microdilution; multidrug-resistant).
C[N+]1=C2C(c3ccc(Cl)cc3)=[N+]([O-])c3ccccc3N2CCC1 gave an MIC of 16 µg/mL (Prevotella intermedia/nigrescens; ATCC 25611).
CC(C)[C@@H]1NC(=O)[C@@H](C(C)C)NC(=O)[C@@H](NC(=O)CCCCCCCCCCCNC(=N)N)[C@@H](C)OC(=O)[C@@H](C)NC(=O)[C@@H](CC(N)=O)NC(=O)[C@@H]([C@@H](C)O)NC1=O gave an MIC of 8 µg/mL (Gram-positive bacteria).
The MIC of CC(C)C[C@@H]1NC(=O)[C@H](C)NC(=O)[C@H](NC(=O)[C@H](C)NC(=O)[C@@H](CCCCN)NC(=O)[C@@H](CC(C)C)NC(=O)[C@@H](N)Cc2ccccc2)[C@H](C(N)=O)OC(=O)[C@H](CC(C)C)NC1=O is reported as 4 to 8 µg/mL (Bacillus subtilis Staphylococcus epidermidis; ATCC 14990; tested as TFA salt).
Cc1ccccc1C(=O)NN=Cc1ccc(O)c(Br)c1 has an MIC of 1 µg/mL (Cryptococcus neoformans; microbial growth).
With C=C(NC(=O)C(=C)NC(=O)c1csc(C2=NC3c4csc(n4)C4NC(=O)c5csc(n5)C(C(C)(O)C(C)O)NC(=O)C5CSC(=N5)C(=CC)NC(=O)C(C(C)O)NC(=O)c5csc(n5)C3(CC2)NC(=O)C(C)NC(=O)C(=C)NC(=O)C(C(C)CC)NC2C=Cc3c(C(C)O)cc(nc3C2O)C(=O)OC4C)n1)C(N)=O (stereo not shown) the MIC was over 5 µg/mL (Bacillus sp.; broth microdilution; ATCC 27859; 18 h, 37 °C).
For Cc1ccc(C2OC(c3ccc(C)cc3)C(C)C(=NOCc3cn(-c4ccccc4)nn3)C2C)cc1 (stereo not shown), the MIC was 25 µg/mL (Rhizopus; 72 to 96 h).
CC[C@H](C)[C@H](NC(=O)[C@@H]1CC(=O)N[C@@H](CO)C(=O)N[C@@H](CC(C)C)C(=O)NCC(=O)N[C@@H](CO)C(=O)N[C@@H](CO)C(=O)N2CCC[C@H]2C(=O)N[C@@H](Cc2ccc(O)cc2)C(=O)N[C@@H](CC(N)=O)C(=O)N1)C(=O)N[C@@H](CC(C)C)C(=O)NCC(=O)N[C@@H](Cc1ccc(O)cc1)C(=O)N1CCC[C@H]1C(=O)N[C@@H](C)C(=O)N[C@@H](CC(C)C)C(=O)N[C@H](C(=O)N[C@H](C(=O)N[C@H](C(=O)N[C@@H](Cc1ccc(O)cc1)C(=O)N1CCC[C@H]1C(=O)O)[C@@H](C)CC)C(C)C)[C@@H](C)CC gave an MIC of over 128 µg/mL (Saccharomyces cerevisiae).
COc1ccc(C2=[N+]([O-])c3ccccc3N3CC(C)(C)CN=C23)cc1 has an MIC of 4 µg/mL (Clostridioides difficile; microbial growth; ATCC43255).
For N#Cc1ccc(-c2c[nH]c(CNC(=O)Nc3ncc(Sc4ccccn4)s3)n2)cc1, the MIC was over 128 µM (Bifidobacterium breve; broth microdilution; ATCC 11863; together with: verapamil 50 µg/mL).
CC[C@H](C)[C@H](NC(=O)[C@@H](Cc1ccccc1)NC)C(=O)N[C@@H](CO)C(=O)N[C@H](CCCNC(=N)N)C(=O)N[C@@H](C(=O)N[C@H](C(=O)N[C@@H](CO)C(=O)N[C@H]1C(=O)N[C@@H](C)C(=O)N[C@@H](CC(C)C)C(=O)N[C@@H]([C@@H](C)CC)C(=O)O[C@H]1C)[C@@H](C)CC)[C@@H](C)CC has an MIC of 0.0078 to 2 µg/mL (Gram-positive bacteria; 0.002% polysorbate 80; range over five species).
The MIC of CN[C@@H]1[C@H](O)[C@H](NC)[C@H]2O[C@]3(O)[C@H](O[C@@H]2[C@H]1O)O[C@H](C)C[C@@]3(O)CNCc1ccc(F)cc1 is reported as 3 µg/mL (Streptococcus pneumoniae; OVA2 drug resistant).
The MIC of CC(C)c1ccc(Cn2ccc([C@H](C)[C@](O)(Cn3cnnn3)c3ccc(F)cc3F)n2)cc1 is reported as 2 µg/mL (Candidozyma auris; growth; 789 drug-resistant isolate; 24 h, 30 °C, ≥50% inhibition).
[O-][N+]1=C(c2ccccc2)C2=NCCCN2c2ncccc21 has an MIC of 0.25 µg/mL (Clostridium sporogenes; microbial growth; ATCC3584).
For C[C@@H](c1ccn(Cc2ccc(Cl)c(Cl)c2)n1)[C@](O)(Cn1cnnn1)c1ccc(F)cc1F, the MIC was 8 µg/mL (Candidozyma auris; microbial growth; 887; 24 h, drug-resistant strain, clinical isolate).
CC[C@@H](C)[C@@H](NC(=O)[C@@H](C)NC(=O)[C@@H](CCCCN)NC(=O)[C@@H](CC(C)C)NC(=O)[C@@H](C)NC(=O)[C@H](NC(=O)[C@@H](Cc1c[nH]cn1)NC(=O)[C@@H](CC(C)C)NC(=O)[C@H](NC(=O)[C@H](NC(=O)[C@@H](CCCCN)NC(=O)[C@@H](CCCCN)NC(=O)[C@@H](C)NC(=O)[C@@H](CO)NC(=O)[C@@H](CCCCN)NC(=O)[C@@H](Cc1ccccc1)NC(=O)[C@H](NC(=O)[C@@H](CCCCN)NC(=O)[C@@H](CC(C)C)NC(=O)[C@@H](Cc1ccccc1)NC(=O)[C@@H](CO)NC(=O)[C@@H](CCCCN)NC(=O)[C@@H](Cc1c[nH]c2ccccc12)NC(=O)[C@@H](CCCCN)NC(C)=O)[C@H](C)O)[C@H](C)O)C(C)C)[C@H](C)O)C(=O)N[C@H](CO)C(=O)N[C@H](CO)C(N)=O has an MIC of 1.5 µM (Acinetobacter baumannii; 759, Mueller-Hinton broth; 24 h, 37 °C).
The MIC of [O-][N+]1=C(Cc2ccccc2)C2=NCCCN2c2ccccc21 is reported as 1 µg/mL (Prevotella intermedia/nigrescens; ATCC 25611).
CC[C@H](C)[C@H](NC(=O)[C@H](C)NC(=O)CNC(=O)[C@@H](N)CCSC)C(=O)N[C@@H](C)C(=O)N[C@@H](CCCCN)C(=O)N[C@@H](CCCNC(=N)N)C(=O)N[C@H](C(=O)N[C@@H](C)C(=O)N[C@@H](CCCCN)C(=O)N[C@@H](Cc1ccccc1)C(=O)NCC(=O)N[C@@H](Cc1c[nH]c2ccccc12)C(=O)N1CCC[C@H]1C(=O)N[C@@H](Cc1ccccc1)C(=O)N[C@H](C(=O)N[C@@H](CCCCN)C(=O)N[C@@H](CCCCN)C(=O)N[C@@H](Cc1ccccc1)C(=O)N[C@@H](Cc1ccc(O)cc1)C(=O)N[C@@H](CCCCN)C(=O)N[C@@H](CCC(N)=O)C(=O)N[C@H](C(=O)N[C@@H](CCSC)C(=O)N[C@@H](CCC(N)=O)C(=O)N[C@@H](Cc1ccccc1)C(=O)N[C@H](C(=O)NCC(=O)N[C@@H](CCC(N)=O)C(=O)NCC(=O)N[C@@H](Cc1c[nH]c2ccccc12)C(=O)N[C@H](C(=O)N[C@H](C(=O)N[C@@H](CC(=O)O)C(=O)N[C@@H](CCC(N)=O)C(=O)N[C@H](C(=O)N[C@@H](CCC(=O)O)C(=O)N[C@@H](CCCCN)C(=O)N[C@@H](Cc1c[nH]c2ccccc12)C(=O)N[C@@H](CC(C)C)C(=O)N[C@@H](CCCCN)C(=O)N[C@@H](CCCNC(=N)N)C(=O)N[C@@H](Cc1c[nH]cn1)C(=O)O)[C@@H](C)CC)[C@@H](C)CC)[C@@H](C)O)[C@@H](C)CC)[C@@H](C)CC)[C@@H](C)CC)C(C)C gave an MIC of 22.2 ± 0.1 µM (Bacillus subtilis subsp. subtilis; ATCC 23857; 10 h).
The MIC of CC[C@H](C)[C@@H]1NC(=O)CNC(=O)[C@H](CCCCN)NC(=O)[C@H](C)NC(=O)[C@H](CCC(=O)O)NC(=O)[C@H](Cc2ccccc2)NC(=O)[C@H](CO)NC(=O)[C@H](CC(C)C)NC(=O)[C@H](C(C)C)NC(=O)[C@H](CC(=O)O)NC(=O)[C@@H](NC(=O)[C@@H](NC(=O)[C@@H](N)C(C)C)[C@@H](C)O)CSSC[C@@H]2NC(=O)[C@H](CO)NC(=O)CNC(=O)CNC(=O)[C@H](CCCCN)NC(=O)[C@H](CCCCN)NC(=O)[C@H](CCCNC(=N)N)NC(=O)[C@H](CC(C)C)NC(=O)[C@H](C)NC(=O)[C@H]([C@@H](C)CC)NC(=O)[C@@H]3CSSC[C@@H](C(=O)N[C@@H](CCCNC(=N)N)C(=O)N[C@@H](CC(N)=O)C(=O)O)NC(=O)[C@H](C(C)C)NC(=O)[C@H](CSSC[C@H](NC(=O)[C@H](C)NC(=O)[C@H](CO)NC(=O)[C@H](Cc4c[nH]cn4)NC(=O)[C@H](CC(N)=O)NC(=O)[C@H](C(C)C)NC(=O)[C@H](C)NC1=O)C(=O)N[C@@H](C)C(=O)N[C@@H](CC(C)C)C(=O)N[C@@H](Cc1c[nH]cn1)C(=O)N3)NC(=O)[C@H](C(C)C)NC(=O)CNC(=O)[C@H](CC(N)=O)NC(=O)[C@H](CCC(N)=O)NC2=O is reported as 10 µM (Trichosporon beigelii; broth microdilution; KCTC 7707; 28 °C).
